Published values gathered from unrelated publications.
Each line is one published result; not all experiments were run side by side. “And” joins repeats or separate records; there may be more than shown.
Target: Serine/threonine-protein kinase PAK 1 (PAK1, Homo sapiens, UniProt Q13153)

| SMILES | test | conditions | how to read | endpoint | value |
| --- | --- | --- | --- | --- | --- |
| C[C@H]1CN(C(=O)c2cn(-c3ccnc(N)n3)c3cc(C#CC4(O)CCCCC4)ccc23)CCN1 | enzyme activity, inhibitor, FRET | 1 µM | – | inhibition | 25% |
| Nc1ncc2c(n1)-c1c([nH]c3ccc(C4=CCOCC4)cc13)CCC2 | binding, competition with immobilised ligand | 1 µM | – | remaining binding | 100% |
| CCn1cc(C(=O)O)c(=O)c2c(N)c(F)c(NC3CCCCC3)cc21 | kinase activity | 0.1 µM, added: ATP at Km | – | inhibition | 2.8% |
| COc1cc(Nc2nc(C)cc(-c3cnn4nc(OC)ccc34)n2)cc(C(F)(F)F)c1 | inhibitor | 1 µM | reference: control | remaining activity | 86% |
| Cc1cccc(O[C@H]2CCC[C@@H](C(C)CNCc3ccncc3)C2)c1 (relative stereo) | enzyme activity, inhibitor | 1 µM | – | inhibition | 2% |
| C=CC(=O)N1Cc2nc(-c3cc(-c4cc(Cl)cnc4Cl)c(F)cc3F)n(-c3ccncn3)c2C1 | cell-free assay, inhibitor | 1 µM | – | inhibition | 2.2% |
| CN1CCN(Cc2ccc(NC(=O)c3cccc(C#Cc4cnc(N)c5ncccc45)c3)cc2C(F)(F)F)CC1 | cell-free assay, competition with immobilised ligand | 0.5 µM | – | remaining binding | 100% |
| Cc1nc2c(F)cc(-c3nc(Nc4ccc(CNC(=O)CCCCCCC(=O)NO)cc4)ncc3F)cc2n1C(C)C | enzyme activity, inhibitor | 1 µM | – | inhibition | 77% |
| C=CC(=O)Nc1cccc(-c2cnc3[nH]cc(C(=O)NC(C)(C)C)c3n2)c1 | enzyme activity, inhibitor | 0.1 µM | – | inhibition | 5% |
| Cc1cnc2nc1Nc1cccc(c1)COC/C=C/COCc1cc(ccc1OCCN1CCOCC1)N2 | binding | 0.1 µM | – | remaining binding | 100% |
| COCC12C(=O)NC3C4(C(OC)CC1O)C1CC5(O)C(OC)C(O)C(OC(C)=O)(C1C5OC(=O)c1ccccc1)C3(O)C(OC)C24 (centres unmarked) | kinase activity, inhibitor, ProQinase kinase profiling | 25 µM | reference: control | remaining activity | 99% and 98% |
| Cc1ccc(-c2c(/C=C(\C#N)C(=O)NC(C)C)n(CCCO)c3ncnc(N)c23)cc1 | cell-free assay, competition with immobilised ligand | 1 µM | – | remaining binding | 100% |
| NC(=O)C[C@H]1CCc2sc3ncnc(O[C@H]4CC[C@H](N5CCOCC5)CC4)c3c21 | enzyme activity, inhibitor | 10 µM | – | inhibition | 2% |
| CCN1CCN(Cc2ccc(C(=O)Nc3ccc(C)c(NCc4cnc5[nH]ccc5c4OC)c3)cc2C(F)(F)F)CC1 | binding, competition with immobilised ligand | 1 µM | – | remaining binding | 92% |
| CN1CC[C@@H](COc2cnc(C#N)cc2-c2ccn3nc(NC(=O)C4CC4)cc3c2)C1 | enzyme activity, inhibitor | 1 µM | – | inhibition | 3% |
| CNC(=O)C1CCN(c2cc(C)c(F)cc2NC(=O)c2ccc(-c3cc(O)ccc3C)c(C)c2)CC1 | binding, competition with immobilised ligand | 1 µM | – | remaining binding | 47% |
| CC(=O)N1c2ccc(-c3ccc(CNC(=O)c4cn5cc(-c6cnc(N)nc6)nc(N6CCOCC6)c5n4)cc3)cc2CC[C@@H]1C | KINOMEscan | 10 µM | – | remaining binding | 100% |
